# Measured values collected from several papers.
# Each line is one published result; not all experiments were run side by side. Numbers after ± are the reported error.
# BIRC2 BIR3: Baculoviral IAP repeat-containing protein 2, BIR3 (BIRC2, Homo sapiens, UniProt Q13490)
SMILES,target,test,setting,Ki
CN[C@@H](C)C(=O)N[C@H]1CN(C(=O)Cc2ccccc2)CC[C@H]2CC[C@@H](C(=O)NCc3ccc(F)cc3)N2C1=O,BIRC2 BIR3,"ligand displacement, FP",,0.0018 µM
CN(C)c1ccc2c3c(cccc13)C(=O)N(C(CS)C(=O)O)C2=O (stereo not drawn),"Metallo-beta-lactamase VIM-2 (VIM-2, Escherichia coli, UniProt Q5U7L7)","enzyme activity, inhibitor","Km 8 µM, together with: chromacef 25 µM",0.17 ± 0.01 µM
COCCOc1cc2ncnc(Nc3cccc(-c4cn(Cc5ccc(C(=O)Nc6cccc(S(N)(=O)=O)c6)cc5)nn4)c3)c2cc1OCCOC,"Carbonic anhydrase 5A, mitochondrial (CA5A, Homo sapiens, UniProt P35218)","enzyme activity, inhibitor, stopped-flow",,0.107 µM
CC(=O)N[C@@H](Cc1ccccc1)C(=O)N[C@@H](CC(=O)O)C(=O)N[C@H](C(=O)N1CCC[C@H]1C(=O)N[C@H](C=O)CC(=O)O)C(C)C,"Caspase-7 (CASP7, Homo sapiens, UniProt P55210)","enzyme activity, inhibitor, fluorescence",pH 7,0.00851 µM
CNCc1c(OCc2ccc(F)cc2)ccc2ccccc12,"Sodium-dependent dopamine transporter (SLC6A3, Homo sapiens, UniProt Q01959)","ligand displacement in cells, radioligand",,3.06 µM
CN[C@@H](C)C(=O)N[C@H]1CN(C(=O)Cc2ccccc2)CC[C@H]2CC[C@@H](C(=O)NCc3ccc(C(C)(C)C)cc3)N2C1=O,"Baculoviral IAP repeat-containing protein 3, BIR3 (BIRC3, Homo sapiens, UniProt Q13489)","ligand displacement, FP",,0.33 µM
OC1(C#Cc2ccc3ccn(-c4ccnc(NC5CCCCC5)n4)c3c2)CCCCC1,"Serine/threonine-protein kinase PAK 4 (PAK4, Homo sapiens, UniProt O96013)","cell-free assay, inhibitor, TR-FRET",,> 10 µM
Cc1cc(N)nc(CC2CNCC2OCCNCC(F)(F)c2cccc(F)c2)c1 (racemic),"Nitric oxide synthase 3 (NOS3, Bos taurus, UniProt P29473)","enzyme activity, inhibitor, hemoglobin capture",,120 µM
O=C(Nc1cccc(-c2nn[nH]n2)c1)c1cc(-c2cc[nH]c2)cc(C(F)(F)F)c1,"Beta-lactamase CTX-M-27 (Escherichia coli, UniProt Q840M4)","enzyme activity, inhibitor, absorbance",pH 7,2.07 µM
CCCCNC(=S)N1[C@H](CCC)[C@H](O)[C@@H](O)[C@H](O)[C@H]1CO,"Alpha-galactosidase (Coffea arabica, UniProt Q42656)","enzyme activity, competitive inhibitor","green coffee bean enzyme, optimal pH, together with: p-nitrophenyl glycopyranoside",> 2000 µM
CN[C@@H](C)C(=O)N[C@H]1CN(C(=O)Cc2ccccc2)CC[C@H]2CC[C@@H](C(=O)NCc3cccc(C(F)(F)F)c3)N2C1=O,BIRC2 BIR3,"ligand displacement, FP",,0.032 µM
O=C(O)c1ccc2nc(-c3ccc(OCCCCCCCCOc4ccc(-c5nc6ccc(C(=O)O)cc6[nH]5)cc4)cc3)[nH]c2c1,"Dihydrofolate reductase type 2 (Escherichia coli, UniProt P00383)","enzyme activity, inhibitor",pH 7,2.1 ± 0.9 µM
CC[C@H](C)[C@H](NC(=O)[C@@H]1CSSC[C@H](NC(=O)[C@H](Cc2ccc(O)cc2)NC(=O)CN)C(=O)N[C@@H](CO)C(=O)N[C@@H](CCCNC(=N)N)C(=O)N[C@@H](CO)C(=O)N[C@@H](Cc2ccc(O)cc2)C(=O)N2CCC[C@H]2C(=O)N2CCC[C@H]2C(=O)N[C@@H](C(C)C)C(=O)N1)C(=O)N1CCC[C@H]1C(=O)N[C@@H](CC(=O)O)C(=O)O,"Mannan-binding lectin serine protease 2 (Homo sapiens, UniProt O00187)","enzyme activity, inhibitor",,0.21 µM
CN[C@@H](C)C(=O)N[C@H]1CN(C(=O)Cc2ccccc2)CC[C@H]2CC[C@@H](C(=O)NCc3cccc(F)c3)N2C1=O,BIRC2 BIR3,"ligand displacement, FP",,0.019 µM
CCCCN(CCc1ccccc1)CCc1cccc(O)c1,"Kappa-type opioid receptor (OPRK1, Homo sapiens, UniProt P41145)",cell-free assay,,0.0084 µM

# Some of these lines once more:
SMILES,target,test,setting,Ki
OC1(C#Cc2ccc3ccn(-c4ccnc(NC5CCCCC5)n4)c3c2)CCCCC1,"Serine/threonine-protein kinase PAK 4 (PAK4, Homo sapiens, UniProt O96013)","cell-free assay, inhibitor, TR-FRET",,> 10 µM
